Results collected from several papers.
Each line is one published result; not all experiments were run side by side. Numbers after ± are the reported error.
UniProt P03303, sequence (whole entry, looked up): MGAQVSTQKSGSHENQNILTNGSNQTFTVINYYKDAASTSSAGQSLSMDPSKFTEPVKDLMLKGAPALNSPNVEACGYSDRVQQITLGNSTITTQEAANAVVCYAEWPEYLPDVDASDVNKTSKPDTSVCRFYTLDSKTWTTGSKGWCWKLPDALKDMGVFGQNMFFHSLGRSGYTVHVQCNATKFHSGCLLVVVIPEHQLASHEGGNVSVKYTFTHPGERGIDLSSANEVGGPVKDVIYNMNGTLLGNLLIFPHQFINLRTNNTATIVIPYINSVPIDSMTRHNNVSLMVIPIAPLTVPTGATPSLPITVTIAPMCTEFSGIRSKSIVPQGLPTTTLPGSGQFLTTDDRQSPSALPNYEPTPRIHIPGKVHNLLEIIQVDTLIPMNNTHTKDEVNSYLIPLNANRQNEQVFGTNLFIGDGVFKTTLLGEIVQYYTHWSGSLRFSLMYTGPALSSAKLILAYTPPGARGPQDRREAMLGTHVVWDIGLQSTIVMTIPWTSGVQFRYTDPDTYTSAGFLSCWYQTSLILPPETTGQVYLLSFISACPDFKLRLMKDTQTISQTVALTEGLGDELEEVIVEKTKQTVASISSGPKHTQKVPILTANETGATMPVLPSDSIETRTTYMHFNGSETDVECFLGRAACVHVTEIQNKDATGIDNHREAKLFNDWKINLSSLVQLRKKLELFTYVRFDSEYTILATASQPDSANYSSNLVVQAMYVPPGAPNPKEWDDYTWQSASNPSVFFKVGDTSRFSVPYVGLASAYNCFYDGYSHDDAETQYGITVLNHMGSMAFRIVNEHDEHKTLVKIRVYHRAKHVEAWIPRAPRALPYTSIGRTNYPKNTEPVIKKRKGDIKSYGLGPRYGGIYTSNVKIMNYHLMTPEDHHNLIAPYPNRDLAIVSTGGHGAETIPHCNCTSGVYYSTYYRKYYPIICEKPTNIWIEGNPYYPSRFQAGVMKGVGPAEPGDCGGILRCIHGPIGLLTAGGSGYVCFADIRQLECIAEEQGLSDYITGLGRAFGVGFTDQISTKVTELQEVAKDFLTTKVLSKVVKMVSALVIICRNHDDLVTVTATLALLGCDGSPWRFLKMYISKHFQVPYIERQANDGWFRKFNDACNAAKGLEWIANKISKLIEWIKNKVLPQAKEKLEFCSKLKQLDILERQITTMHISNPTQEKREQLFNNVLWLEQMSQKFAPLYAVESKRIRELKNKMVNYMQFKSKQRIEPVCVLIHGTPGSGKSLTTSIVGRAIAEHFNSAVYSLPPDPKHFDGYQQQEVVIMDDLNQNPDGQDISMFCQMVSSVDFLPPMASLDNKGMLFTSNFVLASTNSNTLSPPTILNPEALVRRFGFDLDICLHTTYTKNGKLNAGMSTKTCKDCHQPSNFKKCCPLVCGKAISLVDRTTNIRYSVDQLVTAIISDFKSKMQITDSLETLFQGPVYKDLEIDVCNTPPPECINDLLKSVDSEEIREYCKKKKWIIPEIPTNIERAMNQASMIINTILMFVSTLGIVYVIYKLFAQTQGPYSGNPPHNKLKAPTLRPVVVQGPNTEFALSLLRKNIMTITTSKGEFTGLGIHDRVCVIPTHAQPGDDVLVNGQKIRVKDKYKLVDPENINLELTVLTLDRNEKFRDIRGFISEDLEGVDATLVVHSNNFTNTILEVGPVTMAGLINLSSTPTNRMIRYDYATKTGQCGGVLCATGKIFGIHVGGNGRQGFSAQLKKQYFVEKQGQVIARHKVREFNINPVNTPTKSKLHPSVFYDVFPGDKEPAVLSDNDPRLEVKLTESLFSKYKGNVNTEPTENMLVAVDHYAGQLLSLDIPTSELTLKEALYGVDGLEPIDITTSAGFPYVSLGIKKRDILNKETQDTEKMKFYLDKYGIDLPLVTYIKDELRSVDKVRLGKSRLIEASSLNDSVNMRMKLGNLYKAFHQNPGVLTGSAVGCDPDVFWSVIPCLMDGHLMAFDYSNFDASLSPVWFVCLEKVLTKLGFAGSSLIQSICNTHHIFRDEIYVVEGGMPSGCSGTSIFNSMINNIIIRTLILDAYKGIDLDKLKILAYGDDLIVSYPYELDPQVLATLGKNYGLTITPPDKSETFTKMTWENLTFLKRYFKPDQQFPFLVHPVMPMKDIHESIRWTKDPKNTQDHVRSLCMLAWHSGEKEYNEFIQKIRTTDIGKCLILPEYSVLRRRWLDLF
UniProt O75914, sequence (whole entry, looked up): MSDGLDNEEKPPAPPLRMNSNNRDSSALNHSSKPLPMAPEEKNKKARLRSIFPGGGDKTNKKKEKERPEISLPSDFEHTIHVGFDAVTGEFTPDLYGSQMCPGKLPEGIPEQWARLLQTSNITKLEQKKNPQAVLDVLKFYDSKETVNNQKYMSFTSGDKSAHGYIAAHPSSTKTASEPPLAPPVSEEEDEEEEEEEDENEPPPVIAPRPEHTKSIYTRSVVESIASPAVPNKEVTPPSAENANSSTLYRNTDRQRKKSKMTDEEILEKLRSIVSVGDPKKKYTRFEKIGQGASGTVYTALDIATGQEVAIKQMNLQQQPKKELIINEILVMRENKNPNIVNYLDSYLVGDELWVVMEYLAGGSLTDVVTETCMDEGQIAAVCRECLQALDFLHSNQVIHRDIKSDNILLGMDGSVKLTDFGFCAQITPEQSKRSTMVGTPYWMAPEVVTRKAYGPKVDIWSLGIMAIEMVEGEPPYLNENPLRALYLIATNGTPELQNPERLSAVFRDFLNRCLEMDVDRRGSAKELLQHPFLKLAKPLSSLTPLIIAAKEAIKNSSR
UniProt P20231, sequence (whole entry, looked up): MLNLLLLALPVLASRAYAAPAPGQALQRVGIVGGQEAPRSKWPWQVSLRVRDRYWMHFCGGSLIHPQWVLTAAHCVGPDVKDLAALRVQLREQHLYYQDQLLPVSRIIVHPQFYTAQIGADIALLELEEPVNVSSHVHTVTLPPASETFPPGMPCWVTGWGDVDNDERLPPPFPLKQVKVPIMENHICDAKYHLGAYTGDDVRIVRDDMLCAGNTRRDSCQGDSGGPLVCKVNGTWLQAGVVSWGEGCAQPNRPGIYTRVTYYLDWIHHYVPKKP
UniProt Q9HBA0, sequence (whole entry, looked up): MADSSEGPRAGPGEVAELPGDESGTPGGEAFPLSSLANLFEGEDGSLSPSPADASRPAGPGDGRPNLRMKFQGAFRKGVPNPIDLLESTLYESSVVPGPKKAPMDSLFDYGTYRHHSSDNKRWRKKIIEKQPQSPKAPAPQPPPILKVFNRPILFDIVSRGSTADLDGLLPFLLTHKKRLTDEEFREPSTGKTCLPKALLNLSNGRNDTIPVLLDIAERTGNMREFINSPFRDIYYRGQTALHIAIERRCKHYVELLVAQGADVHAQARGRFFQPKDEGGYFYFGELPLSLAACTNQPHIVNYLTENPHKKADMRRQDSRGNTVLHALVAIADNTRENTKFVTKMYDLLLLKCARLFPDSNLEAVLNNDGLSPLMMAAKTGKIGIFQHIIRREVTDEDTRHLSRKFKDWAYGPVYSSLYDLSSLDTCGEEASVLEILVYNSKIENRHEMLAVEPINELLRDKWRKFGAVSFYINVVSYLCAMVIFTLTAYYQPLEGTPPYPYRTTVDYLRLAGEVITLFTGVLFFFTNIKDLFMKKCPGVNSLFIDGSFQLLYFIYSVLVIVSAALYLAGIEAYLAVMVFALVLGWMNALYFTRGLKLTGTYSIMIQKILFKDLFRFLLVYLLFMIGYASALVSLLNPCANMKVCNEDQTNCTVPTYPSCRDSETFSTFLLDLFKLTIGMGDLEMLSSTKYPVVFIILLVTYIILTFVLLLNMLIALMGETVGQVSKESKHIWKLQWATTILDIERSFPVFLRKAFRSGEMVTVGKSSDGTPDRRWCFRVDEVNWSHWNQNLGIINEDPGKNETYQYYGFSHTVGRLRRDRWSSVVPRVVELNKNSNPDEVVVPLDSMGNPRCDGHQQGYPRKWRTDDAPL
UniProt P12955, sequence (whole entry, looked up): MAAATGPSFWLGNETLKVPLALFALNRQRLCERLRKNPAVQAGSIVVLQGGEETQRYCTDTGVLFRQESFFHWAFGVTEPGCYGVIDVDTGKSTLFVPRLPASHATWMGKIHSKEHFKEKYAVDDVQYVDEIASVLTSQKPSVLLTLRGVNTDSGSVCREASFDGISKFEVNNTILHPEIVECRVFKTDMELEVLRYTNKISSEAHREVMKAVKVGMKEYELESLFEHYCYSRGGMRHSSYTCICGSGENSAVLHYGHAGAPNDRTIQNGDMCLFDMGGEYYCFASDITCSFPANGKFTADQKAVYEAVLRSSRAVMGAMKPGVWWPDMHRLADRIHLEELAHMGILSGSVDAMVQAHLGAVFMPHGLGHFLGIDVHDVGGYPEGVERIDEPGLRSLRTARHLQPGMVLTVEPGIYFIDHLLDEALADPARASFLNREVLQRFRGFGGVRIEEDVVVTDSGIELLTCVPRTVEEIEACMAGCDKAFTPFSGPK
UniProt O43148, sequence (whole entry, looked up): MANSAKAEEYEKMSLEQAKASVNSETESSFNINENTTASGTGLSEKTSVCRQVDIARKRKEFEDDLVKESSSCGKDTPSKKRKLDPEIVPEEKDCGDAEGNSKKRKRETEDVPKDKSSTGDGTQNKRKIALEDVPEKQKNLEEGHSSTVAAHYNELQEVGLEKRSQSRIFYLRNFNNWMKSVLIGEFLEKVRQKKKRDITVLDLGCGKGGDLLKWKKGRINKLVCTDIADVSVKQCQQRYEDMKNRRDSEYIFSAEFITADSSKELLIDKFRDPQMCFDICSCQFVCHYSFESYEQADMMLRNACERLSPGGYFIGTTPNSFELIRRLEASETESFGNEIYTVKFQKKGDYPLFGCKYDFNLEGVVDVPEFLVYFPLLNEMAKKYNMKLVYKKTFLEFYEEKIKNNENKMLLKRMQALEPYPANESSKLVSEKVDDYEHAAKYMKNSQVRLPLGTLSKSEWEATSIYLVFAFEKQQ

Compound | target | test | test system | conditions | IC50 [nM]
CC(C)=C/C=C/[C@@H](C)[C@H]1CC[C@@H]2[C@]1(C)CC[C@H]1[C@]23C=C[C@]2(C[C@@H](O)CC[C@]12C)OO3 | Cathepsin B (CTSB, Homo sapiens, UniProt P07858) | enzyme activity, inhibitor, fluorescence |  |  | 8180
CCOc1ccccc1/C=C\c1nc(O)c([N+](=O)[O-])c(=O)[nH]1 | ACP3 (Homo sapiens, UniProt P15309) | enzyme activity, inhibitor |  |  | 13800
CCn1c(-c2ccc(-c3ccc(F)cc3)cc2)c(-c2ccc(-c3ccc(F)cc3)cc2)n(CC)c1=[Se+][Au-][P+](CC)(CC)CC.Cl | thioredoxin reductase (Acinetobacter baumannii, UniProt A0A0G4QN87) | thioredoxin reductase activity | carbapenem-resistant | 2 h | 1200
COc1cc(-c2nn(C3CCC(N4CCN(C)CC4)CC3)c3ncnc(N)c23)ccc1NC(=O)OCc1ccccc1 (centres unmarked) | PAK3 (Homo sapiens, UniProt O75914) | kinase activity, inhibitor |  | added: ATP 100 µM, MBP substrate | > 20000
N=C(N)NCCC[C@H](NC(=O)[C@H](Cc1c[nH]c2ccccc12)NC(=O)[C@H](CCCCN)NC(=O)CNC(=O)CCC(=O)NN)C(N)=O | Tryptase beta-2 (TPSB2, Homo sapiens, UniProt P20231) |  |  | pH 7.4 | 12600 ± 610
O=C(CCCCCCC(=O)Nc1cccc(N=Nc2ccccc2)c1)NO | HDAC2 (Homo sapiens, UniProt Q92769) | enzyme activity, inhibitor |  | cis isomer, irradiated | 56 ± 12
CC(C)[C@H](NC(=O)c1ccc(CNc2nc3c(c(=O)[nH]2)CCC3)cc1)C(=O)NC1CNC1 | Collagenase 3 (MMP13, Homo sapiens, UniProt P45452) | enzyme activity, inhibitor |  | formic acid salt, added: fTHP-15(FAM) substrate | 74
CC[C@H](C)[C@@H]1NC(=O)[C@H](Cc2ccccc2)NC(=O)[C@H](CC(=O)O)NC(=O)[C@@H](NC(C)=O)CSC(=O)[C@H](CCSC)NC1=O | Accessory gene regulator protein C (Staphylococcus aureus, UniProt Q309Z2) |  |  |  | > 1000
Cn1c(=O)c2cc(C(=O)NCCCN3CCCCCC3)sc2c2ccccc21 | Bifunctional FPP/GGPP synthase (Plasmodium falciparum, UniProt Q8II79) | FPP production, inhibitor |  | non-saturating substrate | 330
Brc1c(Br)c(Br)c2[nH]nnc2c1Br | mRNA cap guanine-N(7) methyltransferase, with RAM (RNMT, Homo sapiens, UniProt O43148) | N7-methyltransferase activity, inhibitor, Py-FLINT |  | RNMT-RAM complex, added: SAM 20 µM | 38100 ± 360
Cc1c(C(=O)Nc2cccc(C(F)(F)F)c2)cc(-c2ccccc2)n1CCCN1CCOCC1 | TRPV4 (Homo sapiens, UniProt Q9HBA0) | calcium signal, antagonist |  |  | 2.7
CC(=O)CCC1C(=O)NC(C(C)C)C(=O)NC(Cc2cc(O)cc(F)c2)C(=O)N2CCCC(N2)C(=O)OC(C(C)=CC=CC(=O)N2CCCCO2)CC=CC=CC(O)C(C)C1O (centres unmarked) | SLCO1B3 (Homo sapiens, UniProt Q9NPD5) | transporter uptake, inhibitor | CHO | pH 7.3 | 1750
CCc1n[nH]c(NC(=O)c2ccc3c(c2)nnn3C)n1 | Genome polyprotein, 3C protease (rhinovirus B14, UniProt P03303) | 3C protease activity, SAMDI-MS | human rhinovirus |  | 57000
COC(=O)[C@@H]1CCCN1C(=O)[C@@H](O)[C@H](N)CC(C)C | Xaa-Pro dipeptidase (Homo sapiens, UniProt P12955) | enzyme activity, inhibitor |  |  | 675

Excerpt of the above:
Compound | target | test | test system | conditions | IC50 [nM]
CCOc1ccccc1/C=C\c1nc(O)c([N+](=O)[O-])c(=O)[nH]1 | ACP3 (Homo sapiens, UniProt P15309) | enzyme activity, inhibitor |  |  | 13800
